Measured values pooled from the literature.
Parts stem from different laboratories: compare values within a part only. Positions count from the first letter of the parent shown.

Block 1 — method: RNA Bind-n-Seq; form: RNA; medium: in vitro; tested at: not given; baseline: input RNA pool; direction: higher = stronger binding; quantity: bound/input enrichment
Target: RING finger protein unkempt homolog, zinc fingers 1-6, GST-SBP tag (UNK, Homo sapiens, UniProt Q9C0B0, residues 30-357)
Chain of UniProt Q9C0B0 (30-357, looked up): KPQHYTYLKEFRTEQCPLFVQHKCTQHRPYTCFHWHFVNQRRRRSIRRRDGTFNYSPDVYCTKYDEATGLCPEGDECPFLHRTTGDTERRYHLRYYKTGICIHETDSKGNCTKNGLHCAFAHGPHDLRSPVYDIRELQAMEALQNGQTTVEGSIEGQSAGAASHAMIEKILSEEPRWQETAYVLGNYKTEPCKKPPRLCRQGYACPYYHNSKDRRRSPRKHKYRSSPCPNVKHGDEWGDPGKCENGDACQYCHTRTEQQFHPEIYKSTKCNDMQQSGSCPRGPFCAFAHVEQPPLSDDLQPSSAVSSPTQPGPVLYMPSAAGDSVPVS
Notes: RNA with constant flanks, human and mouse sites, ends assumed
Constant ends, left off below: GGGAGUUCUACAGUCCGACGAUC … CAACAGAGGAUUGAGCAUCA
ACUAAUGCAGUAAUUGCUGGGUUGAUAGUAUUGGAAGGAUUGAAGAUUUUAUCAGGAAAAAUAGACCAGUGCAGAACAAUUUUUUUGAAUAAACAACCAAACCCAAGAAAGAAGCUUCUU: 0.228 ratio
CCAGAGGUGAAAGGCUAUUGGGCAAGUUUGGAUGCAUCUACUCAAACCACCCAUGAACUCACCAUUCCAAAUAACUUAAUCGGCUGCAUAAUCGGGCGCCAAGGCGCCAACAUCAAUGAG: 0.0796 ratio
UUCUUUUUUAUUAAACAGUGAUAAGAUUUUGUUACCAAGCAGCAUUUGAUAAAAGGUUCACUGGUUUUGGUAAACAAUAAACACUUUUAUAACAGCUAUUGUACAGUUGGCUGGUGCUCC: 0.366 ratio
CGCUUCAGUGUCCUGGAAGUGCUUAAGUACCUGUUAAUGAGACGCUGGGAUUGAAUGCUGAGUUCCGGCCAUGCCUGGAGUGGCUGUACAGAGACCACAAAGAGUUCAGGUCUGUGUCCA: 0.135 ratio
AACAUUAAUUUUCCUAAUCUCAAGCAAGACUACCCAGACUGGUCAAGCCGUUGCAAACAAAUCAUGAAGCUCUGGAGAAAGGUUCCAGCAGCUGACAAAGCCCCCUACCUGCAAAAGGCC: 0.674 ratio
CAGCUGGAAGAUGGGCGCACCCUGUCUGACUACAACAUCCAGAAAGAGUCUACCCUGCACCUGGUGCUCCGUCUCAGAGGUGGGAUGCAGAUCUUCGUGAAGACCCUGACUGGUAAGACC: 0.0756 ratio
UACCAAAUAACUUUAGAGCUCACCCACUUCAGUUGGAGCAAUCCAGUGACCCUUCUAACAGUAUUGAUGGCCCAGAUCAUCUAAGAUCUGCUUCAUCGUUACAUGAAACAAAGAAAGGAA: 0.153 ratio
UAGCUCCGCAGAGGCGUGGGCUCGAUUCCUCAGGGCCACGUUACCACAGACCUGUUUGUUUCUUAUGCUGUUGUUCGUGGAGUCUCAUGGGAUUGUCUGGUUUCCCUUACAGGGCCCCCU: 0.208 ratio
AGACUUGAAACAAUAUUUUUUGCCAAGCAGGUAAUUAAUAAUGCUUGUGCCACUCAGGCUAUCGUAAGUGUACUACUGAACUGUACGCAUCAAGAUGUGCAUUUAGGAGAGACAUUAUCA: 0.929 ratio
GUUUUUGGCAAACAUGUCAGCAACGCACCGCUUACUAAACUGCCGAUCAAAUGUUUCCUAGAUUUCAAAGCAGGAGGAUCCCUCUGCCAUAUUCUUGCAGCUGCCUACAAAUUCAAGAGU: 0.234 ratio
AUCGCACAGGAUCUUCAACAACUGCAACAGCUUCAACAGCAGAAUCUCAACCUGCAACAGUUUGUGUUGGUGCAUCCAACCACCAAUUUGCAGCCAGCGCAGUUUAUCAUCUCACAGACG: 0.131 ratio

Block 2 — method: RNAcompete; form: RNA; medium: in vitro; tested at: 20 nM; notes: 7-mer, probes averaged, single round; baseline: mean of 7-mers; direction: higher = stronger binding; quantity: 7-mer Z-score
Target: PABPC1L2, full length, GST fusion (mouse, UniProt A0ABA7IW68)
Construct (chain): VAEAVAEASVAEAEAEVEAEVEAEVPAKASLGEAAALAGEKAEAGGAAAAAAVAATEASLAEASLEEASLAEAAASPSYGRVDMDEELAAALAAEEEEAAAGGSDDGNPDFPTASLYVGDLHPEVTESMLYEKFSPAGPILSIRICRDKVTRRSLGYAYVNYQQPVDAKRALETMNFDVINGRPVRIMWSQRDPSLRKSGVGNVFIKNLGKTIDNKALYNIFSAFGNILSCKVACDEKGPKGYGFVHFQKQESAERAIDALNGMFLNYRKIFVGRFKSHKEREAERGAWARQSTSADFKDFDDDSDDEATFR
UUUAGAG: 0.294
AUUCUGG: -0.135
UCGUAAC: -0.282
UACGGAC: 0.0424
CAAGUCU: -0.229
ACGAGGA: 0.0968
AAGAAAA: 4.79
CUUGCAG: -0.238
CGACCAG: -0.0355
UCUACUG: -0.403
UUCUUAU: -0.347
AUUAGAC: -0.146
ACUAGGC: -0.00108
CUACUGU: -0.197
AUGCUUC: -0.335
CCCAGAU: -0.132
AAUGUAA: 0.242
AUUCUGA: -0.336
CAUAGUC: -0.249
GUGUACC: -0.286
CUGACUU: -0.28
GUACACU: -0.119
UUGUAUA: -0.148

Block 3 — target: CREB3L4, bZIP domain (human); method: DHFR protein complementation; medium: yeast; baseline: wild-type JUN-FOS pair; direction: higher = stronger binding; quantity: binding fitness
Notes: single substitutions, most at no-binding floor
Starting sequence: JUN, bZIP domain (human); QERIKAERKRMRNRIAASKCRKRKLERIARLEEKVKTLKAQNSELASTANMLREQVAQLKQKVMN; partner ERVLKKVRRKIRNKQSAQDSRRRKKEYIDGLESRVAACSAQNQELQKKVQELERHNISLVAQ
L38I: -1.5 natural log
A49F: -1.52 natural log
E54T: -1.26 natural log
K39C: -1.48 natural log
V56T: -1.51 natural log
E54V: -1.51 natural log
L38R: -1.46 natural log
A46T: -1.33 natural log
L31P: -1.52 natural log
M51D: -1.45 natural log
N42T: -1.44 natural log
K36A: -1.39 natural log
I28G: -1.39 natural log
I28H: -1.52 natural log
K39L: -1.37 natural log
A57G: -1.32 natural log
A46Q: -1.52 natural log
T48L: -1.45 natural log
E32V: -1.45 natural log
T48P: -1.49 natural log

Block 4 — method: competition protein-binding microarray; form: double-stranded DNA, one strand shown; medium: in vitro; tested at: 2 µM; together with: Cbf1 competitor, 0.05 µM; direction: higher = stronger binding; quantity: fluorescence intensity; constant ends, left off below: … GTCTTGATTCGCTTGACGCTGCTG
Target: Phosphate system positive regulatory protein PHO4, full length, GST-tagged (PHO4, Saccharomyces cerevisiae, UniProt P07270, residues 1-312)
Notes: whole 60-bp probe, lowest competitor level
Residues (chain): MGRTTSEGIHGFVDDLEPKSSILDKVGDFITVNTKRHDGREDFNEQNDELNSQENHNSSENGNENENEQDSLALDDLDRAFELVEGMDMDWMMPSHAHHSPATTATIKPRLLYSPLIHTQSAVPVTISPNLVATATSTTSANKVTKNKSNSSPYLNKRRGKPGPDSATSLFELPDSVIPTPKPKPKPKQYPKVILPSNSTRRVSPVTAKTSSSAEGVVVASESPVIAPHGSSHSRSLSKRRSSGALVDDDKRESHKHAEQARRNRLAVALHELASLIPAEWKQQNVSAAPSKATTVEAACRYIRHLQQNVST
ACTTGAGTCAAAAGGCATGTGCGCCTCTTGTTATCT: 12400 a.u.
CTAACGAAGGTTTGCTCGGTGGGTGACAAGCCAAGT: 3310 a.u.
TTTTTTGCGTCCTACAGCGTGATGGAAATTTCGCCT: 5900 a.u.
TGCATTCTTCAATATCAGGTGAAATGTGTCTTGCCT: 4860 a.u.
TAACATAGAATTCTTCACGTGGTCGAAATATGTATA: 16300 a.u.
TAGAGCTTGCCTCGTCAGGTGATGACAAGTTGTAAA: 3770 a.u.
TTATATCCGACGTCCCACGTGTCGGCGAAGCTCGGA: 18200 a.u.
TTAAAACAGAATCGGCACGTGTCCTGATTGCTTCCG: 16300 a.u.
CTAACGAAGGTTTGAAGTGTGGGTGACAAGCCAAGT: 4550 a.u.
AGAAAGACCCAGAGGCACATGCAAGATAGTTGTGCC: 10500 a.u.
CATACCCAACCTTGGCGGGTGGGTGAAGATATTTGT: 4790 a.u.
CGCCCGTATTCGGGCAACGTGAGCCCAAATACGCCT: 8710 a.u.
GAAATTTTAACGCAGAACGTGCCGAAGAAAAAAAAA: 14500 a.u.
TTACAGATAATGGTGCATGTGATAGGCTTCGTACCA: 8970 a.u.
AAAGCGGTAATTTACCACGTGTTTTCACATATCTAT: 16000 a.u.
CTAAAATCAGCATCGCACATGGACGGTTAGCTCGCG: 10200 a.u.
AGGTAGATCTCTACACGTGTGCAAGCGCATAACAAT: 18100 a.u.
GTCTTGTCTCATTGTCACTTGACTTTCCCCACTTCA: 3640 a.u.
AACAGACCTGACGGCCACGATGCAGCAGACGCTTAC: 8820 a.u.
TGTCAATGTCGCCGTCACATGGGAAGAAAGGTGGGA: 9650 a.u.
CATACCCAACCTTGTCACGGGACTTAAGATATTTGT: 6720 a.u.
CGTCCTAGTGATTGTGAGGTGGGTGCCATGAGGAAG: 5870 a.u.
CTAACGAAGGTTTGAGGAGTGGGTGACAAGCCAAGT: 3790 a.u.
GTTGTTCCATGCTCAGTTGTGATATTGAATGCCCTC: 5260 a.u.
CGGGGTTAAGTTTTTCACGTGTTGTGCTTGCAGCAG: 14700 a.u.

Block 5 — method: protein binding microarray; form: double-stranded DNA, one strand shown; medium: in vitro; tested at: not given; baseline: not given; direction: higher = stronger binding; quantity: E-score
Target: Histone acetyltransferase KAT6A, both winged helices, GST fusion (KAT6A, Homo sapiens, UniProt Q92794, residues 1-181)
Notes: 8-mer, flanks averaged, mean of 2 arrays, mostly near background
Construct (chain): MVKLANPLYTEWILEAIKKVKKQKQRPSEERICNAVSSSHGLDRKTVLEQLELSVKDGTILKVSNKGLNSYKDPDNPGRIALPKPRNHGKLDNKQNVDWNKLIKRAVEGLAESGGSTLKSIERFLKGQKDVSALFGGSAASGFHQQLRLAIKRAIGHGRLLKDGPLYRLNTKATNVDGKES
GACTCGTA: -0.0192
ACCATCAA: -0.137
CCGTAAGA: 0.11
ACACCGCT: 0.142
CCGACAGG: 0.042
AGGGCGAC: 0.0178
AGCCAAGA: -0.227
TCTGGACA: -0.0747
AAGCACCT: -0.285
CAAGTCTG: -0.173
ATCCGGGG: 0.039
ACGGGCCC: 0.276
CCGTATTC: 0.223
CGAGTGGC: -0.00995
TCCGGACA: 0.0822
ATAGAGTA: -0.0635
CATCAATA: -0.194
ATTCCTAC: -0.0703
CGACGAAA: -0.187
TACGGCGA: 0.317
GCGCTACC: 0.3

Repeated from above (block 4):
CGCCCGTATTCGGGCAACGTGAGCCCAAATACGCCT: 8710 a.u.
GAAATTTTAACGCAGAACGTGCCGAAGAAAAAAAAA: 14500 a.u.
TTACAGATAATGGTGCATGTGATAGGCTTCGTACCA: 8970 a.u.
AAAGCGGTAATTTACCACGTGTTTTCACATATCTAT: 16000 a.u.
CTAAAATCAGCATCGCACATGGACGGTTAGCTCGCG: 10200 a.u.
AGGTAGATCTCTACACGTGTGCAAGCGCATAACAAT: 18100 a.u.
GTCTTGTCTCATTGTCACTTGACTTTCCCCACTTCA: 3640 a.u.
AACAGACCTGACGGCCACGATGCAGCAGACGCTTAC: 8820 a.u.
TGTCAATGTCGCCGTCACATGGGAAGAAAGGTGGGA: 9650 a.u.
CATACCCAACCTTGTCACGGGACTTAAGATATTTGT: 6720 a.u.
CGTCCTAGTGATTGTGAGGTGGGTGCCATGAGGAAG: 5870 a.u.
CTAACGAAGGTTTGAGGAGTGGGTGACAAGCCAAGT: 3790 a.u.
GTTGTTCCATGCTCAGTTGTGATATTGAATGCCCTC: 5260 a.u.
